Measurements collected from several papers.
Every numbered part comes from another study and shows a few of its results, in no order. Positions count from the first letter of the parent shown.

Series 1
Target: Transcription factor SOX-2, HMG box (SOX2, Homo sapiens, UniProt P48431, residues 19-118)
Sequence of UniProt P48431 (19-118, looked up): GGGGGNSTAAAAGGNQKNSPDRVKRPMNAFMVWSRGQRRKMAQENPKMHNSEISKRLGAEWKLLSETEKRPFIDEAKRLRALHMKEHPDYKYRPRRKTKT
Method: protein-binding microarray
Form: double-stranded DNA, one strand shown
Matrix: in vitro
Concentration: not given
Setting: k-mer, scored over probes, only values ≥0.25
Direction: higher = stronger binding
| Sequence | E-score |
| --- | --- |
| CATTGAA | 0.364 |
| CAATTGA | 0.414 |
| GAATTTA | 0.271 |
| AACAAAG | 0.399 |
| ATATGAA | 0.282 |
| AAATTGT | 0.407 |
| AATTGTG | 0.433 |
| TAATAGA | 0.354 |
| CATTGTA | 0.426 |
| ATACAAT | 0.458 |
| CAAACAA | 0.333 |
| ACTAAAT | 0.264 |
| AATGGCA | 0.312 |
| TGACAAA | 0.286 |
| TCGTCAA | 0.263 |
| AATATCA | 0.263 |
| ATTTATC | 0.312 |
| GACAATA | 0.445 |
| ATAACAA | 0.417 |
| GTATTCA | 0.357 |
| AATGAAG | 0.252 |
| AAGCATT | 0.262 |
| AATCAAA | 0.284 |
| AATTTAT | 0.333 |
| CGCACAA | 0.264 |

Series 2
Organism: Saccharomyces cerevisiae
Read-out: cell growth
Method: competitive growth deep sequencing
Form: peptide
Setting: peptide tiling library
Together with: cyclin F-Cln2 fusion
Direction: direction not given
| Sequence | enrichment score |
| --- | --- |
| IQKKLRFEDTLEFVGF | 1.87 |
| KPITLDTTDFQESFVT | 0.42 |
| KSKHEEEEWTDDDLVE | 1.49 |
| TRRRLFVENDSP | 4.18 |
| KDDDKAWEYEERDRRS | -0.407 |
| EPKTLFLGAGDFQF | 1.86 |
| CFRCLLFSFSGRSGVE | 1.1 |
| RSLKLDGLLEEN | 2.68 |
| TSPGPVLLHPSPSTTQ | 0.284 |
| ISRLFPPRTPGWHQLQ | -1.38 |
| KRRLDLETDHQY | 3.67 |
| ALLRRLQDVANDRGSH | -0.642 |

Series 3
Target: Ras GTPase-activating protein-binding protein 1, full length (G3BP1, Homo sapiens, UniProt Q13283)
Sequence of UniProt Q13283 (whole entry, looked up): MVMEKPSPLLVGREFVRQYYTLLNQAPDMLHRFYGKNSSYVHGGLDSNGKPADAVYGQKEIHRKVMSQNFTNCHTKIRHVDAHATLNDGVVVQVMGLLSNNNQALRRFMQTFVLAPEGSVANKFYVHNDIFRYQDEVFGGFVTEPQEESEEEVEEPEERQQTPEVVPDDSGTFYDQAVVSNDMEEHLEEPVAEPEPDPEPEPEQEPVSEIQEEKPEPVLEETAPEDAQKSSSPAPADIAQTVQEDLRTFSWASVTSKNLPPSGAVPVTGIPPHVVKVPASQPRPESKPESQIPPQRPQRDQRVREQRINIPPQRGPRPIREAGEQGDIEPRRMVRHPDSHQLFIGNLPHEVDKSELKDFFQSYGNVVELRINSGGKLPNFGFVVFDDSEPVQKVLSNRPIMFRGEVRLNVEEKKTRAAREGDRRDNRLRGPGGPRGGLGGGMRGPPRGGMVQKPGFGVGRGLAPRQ
Method: RNA Bind-n-Seq
Form: RNA
Matrix: in vitro
Concentration: 200 nM
Setting: whole 134-nt RNA, ends assumed
Together with: 150 mM LiCl
Reference: input library
Direction: higher = stronger binding
Library: 7-deaza-guanosine replaces G
Constant ends, left off below: GGGAGUUCUACAGUCCGACGAUC … UGGAAUUCUCGGGUGUCAAGG
| Sequence | log2 enrichment |
| --- | --- |
| CAAGUCCUGUGCUACACAUCGUAUGUACCGAAUCGGGGUUUGGGGUGGGGAGGGGAAAGUAUUAUGUUACGCCGUUCGGAUCUGCACUUC | 0.426 |
| CUGUGCUACACAUCGUAUGUACCGAAUCGGGGCCCCCCCGGGGCCCCCCCGGGCCCCCCCGGAAAGUAUUAUGUUACGCCGUUCGGAUCU | -0.965 |
| ACCAUGCAGGUGGGCAUCUUUGGGAAGUGGGGCAACGGGGGGAUAGGGAGGGGGGUAACACUUUGGGAACAGGUGGUCCCAGGUCGUUUC | 0.0637 |
| UUGCCCUGGUGGCAUGCGGGGAGGAAGAGGUGGCCUCAUGGAUCGUGGUGGUCCCGGUGGAAUGUUCAGAGGUGGCCGUGGUGGAGACAG | 0.721 |
| CACAGACAACACGCACCCACCCAGACACAGAGGGAAGGGGUUGGGAUGGGGACAGGGUGCACAGCAGGGCGGGGUAGGACCCCAGCCCCU | -0.745 |
| CUCAAGUCCUGUGCUACACAUCGUAUGUACCGAAUCGGAAAAAGGUUUGGUGGAAAGUAUUAUGUUACGCCGUUCGGAUCUGCACUUCCA | 0.0606 |
| GUCCUGUGCUACACAUCGUAUGUACCGAAUCAAAUUUAAACCCCCCCAAAUUUUUAAAAAAGUAUUAUGUUACGCCGUUCGGAUCUGCAC | 1 |
| UCCUCAAGUCCUGUGCUACACAUCGUAUGUACCGAAUCGGAGGUUUGGUGGAAAGUAUUAUGUUACGCCGUUCGGAUCUGCACUUCCAGC | -1.06 |

Series 4
Target: ABI1, truncated, D143A, DHFR fusion (Arabidopsis thaliana)
Method: DHFR PCA, deep sequencing
Matrix: yeast
Setting: methotrexate growth selection, single substitutions
Together with: (+)-ABA 0.0091 µM
Reference: wild-type fitted maximum
Direction: higher = stronger binding
Starting sequence: PYL1, truncated, DHFR fusion (Arabidopsis thaliana); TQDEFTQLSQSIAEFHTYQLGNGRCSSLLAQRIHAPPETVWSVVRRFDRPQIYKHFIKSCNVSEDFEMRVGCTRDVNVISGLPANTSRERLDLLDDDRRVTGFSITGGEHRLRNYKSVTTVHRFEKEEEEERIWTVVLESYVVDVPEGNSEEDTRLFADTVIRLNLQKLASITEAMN; partner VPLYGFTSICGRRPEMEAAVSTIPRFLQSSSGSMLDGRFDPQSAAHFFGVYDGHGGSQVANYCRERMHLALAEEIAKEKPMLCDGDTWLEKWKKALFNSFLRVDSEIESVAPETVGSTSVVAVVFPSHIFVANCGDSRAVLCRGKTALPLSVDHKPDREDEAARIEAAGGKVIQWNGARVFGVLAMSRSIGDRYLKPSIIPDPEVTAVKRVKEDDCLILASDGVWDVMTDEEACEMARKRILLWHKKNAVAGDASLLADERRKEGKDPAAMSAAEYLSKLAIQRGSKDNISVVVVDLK
| Change | relative binding score [%] |
| --- | --- |
| F157V | 5.28 |
| E14W | -1.16 |
| C72G | -1.72 |
| I162E | 2.65 |
| E139W | 2.46 |
| V137P | -0.000385 |
| G107D | 36.6 |
| E127V | 31.4 |
| Q31A | -0.574 |
| A13S | 23 |
| K58M | 4.12 |
| G81A | 11.5 |
| N22E | 52.7 |
| S80H | 26.5 |
| S11P | 45.8 |
| N85F | 71.2 |
| N177G | 39.9 |

Series 5
Target: RING finger protein unkempt homolog, zinc fingers 1-6, SBP tag (UNK, Homo sapiens, UniProt Q9C0B0, residues 30-357)
Sequence of UniProt Q9C0B0 (30-357, looked up): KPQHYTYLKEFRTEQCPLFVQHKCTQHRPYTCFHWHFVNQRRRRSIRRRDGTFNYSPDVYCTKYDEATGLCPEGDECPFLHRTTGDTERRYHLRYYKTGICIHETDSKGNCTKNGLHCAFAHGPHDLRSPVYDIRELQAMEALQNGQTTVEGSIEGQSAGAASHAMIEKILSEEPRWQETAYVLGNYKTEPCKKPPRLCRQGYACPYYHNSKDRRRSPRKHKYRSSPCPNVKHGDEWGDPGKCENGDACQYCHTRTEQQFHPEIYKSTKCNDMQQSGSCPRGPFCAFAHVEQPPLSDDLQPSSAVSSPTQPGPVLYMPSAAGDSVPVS
Method: RNA Bind-n-Seq
Form: RNA
Matrix: in vitro
Concentration: 100 nM
Setting: RNA with constant flanks, vertebrate orthologous sites, ends assumed
Reference: input RNA pool
Direction: higher = stronger binding
Constant ends, left off below: GGGAGUUCUACAGUCCGACGAUC … CAACAGAGGAUUGAGCAUCA
| Sequence | bound/input enrichment |
| --- | --- |
| CUCUUCUCCCCUGACCUGAUUUUAAAGGGCCCCUUUUUUUCUUUUCUUUUUUAGGCAUAUGUAGUAAUAUUAGCAGAAAGAUUUAAUUUGGGCAACUUUGAUUCUUAAAAGAGAAAGCAA | 1.29 ratio |
| UUUUUAAAAGUUUUUUUAAUUUAAUUUUUCCUUUUGGGGGUACAAGUUUGCUCUACCAAAUAGUGAUCGUAACAAAUUGAUCUGUUUUGGAUGUUGCUAUAGUGACAUGCAGUUAUAUAU | 0.696 ratio |
| CAGUAGCGCUUCAGCCAGCAGUUGUAGAAUGCUAUUUAUUCGUGUCUGUAAGUUUGUACAUAACCCUAACCUCGUAGGCAAGUUUGAGUUUUCUUUCCUUUGAUGCAGAUGCUUGGGUUU | 0.456 ratio |
| CACAUCUGGUGAUAUUUGGCCUGGCCUUUCAGCAUAUGAUAAUAGUCCCAGAUCACCCCAUAGUCCUUCACCAAUUGCUACACCACCUAGUCAGAGUUCAUCUUGCUCUGAUGCCCCCAU | 1.15 ratio |
| GCAAAUCCAAUCACUGUGAUAUUUAAAAUAUGCACAGUCCUAAUUCUUUCUUGAUGGUCCUAGUAUUUUUCUAGCUGUAUCUUUAUAUCUCAUACUGUUAUUUAUCAGUUUUGUUCCCCU | 0.962 ratio |
| CUUUUGUGUGAAAUAUGUCUCUCCAGAGAAGUAUCACCUUAUAAAUAUUAUCAAAUAAUUUAGCUCAAGUCUUCUUAGGUAUUAAAUUAUGUGUCAAGCAUUUAAGGUGACUUUGAGAUG | 0.293 ratio |
| CUCUAUGGGCCUCGCAGAGUUGAAAUAAUGGAAGAGGAAAGUGAACAGUAACCUUCAUUUUAGUAUUUAUGCUUAGGUGUGAAAUAAAUGUUAUUUGUUGAUCAUUUCUAUAAUCCAGAG | 0.435 ratio |
| AAUGAGAUGUUUUAACUGUUUAAACAUUAAAUGCAAGCUUUGCUUUUUUGCAUUUGAAUAUAGAGUACUUUUAUAUUGUAAGUGCUUCAAAAGUGUGGAGAUGUUAGAUUUGCUCUUAUA | 0.374 ratio |

Some of these lines once more (series 3):
| Sequence | log2 enrichment |
| --- | --- |
| ACCAUGCAGGUGGGCAUCUUUGGGAAGUGGGGCAACGGGGGGAUAGGGAGGGGGGUAACACUUUGGGAACAGGUGGUCCCAGGUCGUUUC | 0.0637 |
| UUGCCCUGGUGGCAUGCGGGGAGGAAGAGGUGGCCUCAUGGAUCGUGGUGGUCCCGGUGGAAUGUUCAGAGGUGGCCGUGGUGGAGACAG | 0.721 |
| CACAGACAACACGCACCCACCCAGACACAGAGGGAAGGGGUUGGGAUGGGGACAGGGUGCACAGCAGGGCGGGGUAGGACCCCAGCCCCU | -0.745 |
| CUCAAGUCCUGUGCUACACAUCGUAUGUACCGAAUCGGAAAAAGGUUUGGUGGAAAGUAUUAUGUUACGCCGUUCGGAUCUGCACUUCCA | 0.0606 |
| GUCCUGUGCUACACAUCGUAUGUACCGAAUCAAAUUUAAACCCCCCCAAAUUUUUAAAAAAGUAUUAUGUUACGCCGUUCGGAUCUGCAC | 1 |
